Measured values of several laboratories.
Each numbered part is a random draw from the data of one study; scales do not carry over between parts.

Sample 1
Target: Centromere-binding protein 1, full length, His-tagged (CBF1, Saccharomyces cerevisiae, UniProt P17106, residues 1-351)
Chain of UniProt P17106 (whole entry, looked up): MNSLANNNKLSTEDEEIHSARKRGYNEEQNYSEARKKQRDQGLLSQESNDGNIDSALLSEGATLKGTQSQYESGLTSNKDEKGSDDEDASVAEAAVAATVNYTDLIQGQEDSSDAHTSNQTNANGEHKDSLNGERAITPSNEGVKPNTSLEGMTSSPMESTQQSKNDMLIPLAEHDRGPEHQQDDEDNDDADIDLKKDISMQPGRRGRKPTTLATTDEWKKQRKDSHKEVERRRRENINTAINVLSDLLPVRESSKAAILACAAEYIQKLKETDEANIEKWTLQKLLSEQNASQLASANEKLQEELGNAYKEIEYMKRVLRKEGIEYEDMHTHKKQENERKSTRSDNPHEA
Method: competition protein-binding microarray
Form: double-stranded DNA, one strand shown
Medium: in vitro
Concentration: 2 µM
Notes: whole 60-bp probe, lowest competitor level
Added: Pho4 competitor, 0.05 µM
Reading: higher = stronger binding
Strand | fluorescence intensity
AACTAAACCTCTTCGTGCGTGATGGAGTTGGAAACGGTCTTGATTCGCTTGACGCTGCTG | 85.1 a.u.
AAATTACTAAGTTGAACAGTGGGTGACGCCGTATGAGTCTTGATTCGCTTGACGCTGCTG | 71.9 a.u.
CGTCCTAGTGATTGGCTTGTGGGTGCCATGAGGAAGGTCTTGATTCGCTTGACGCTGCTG | 81.7 a.u.
AAAGCGGTAATTTGTCTCGTGGGTGCAGATATCTATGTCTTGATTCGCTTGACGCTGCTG | 125 a.u.
CATGGAAGTTACCATCACCTGCATTACCAACAATGGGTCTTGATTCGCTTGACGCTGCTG | 112 a.u.
TGTCCCAATCTAACACACATGAGTCGTCGAACGCCAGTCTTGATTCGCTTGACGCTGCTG | 77.9 a.u.
AGCATAATGCCGGACCATGTGAAAAGTTCACTCAAAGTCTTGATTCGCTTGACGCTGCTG | 113 a.u.
TGCGCAACAACTTGATACGTGGGTGTATGTCTAGAAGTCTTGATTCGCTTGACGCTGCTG | 65.5 a.u.
CTTCTCTTTCCCACCACCGTGGGTATCCTTTTTCTTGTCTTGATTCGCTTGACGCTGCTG | 67 a.u.
TGTCACTGGGTTTAGCACGGGTGTCATCAAGCTATGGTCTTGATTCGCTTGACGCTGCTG | 87.4 a.u.
CTTTCCCGATCTTTTCACGTGGGGTTAGCACATTTGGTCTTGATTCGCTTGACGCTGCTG | 711 a.u.
GGTTCAAAATCCCGTCACGATGAAATAGAAAATGAAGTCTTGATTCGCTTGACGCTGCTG | 137 a.u.
CTTTCCCGATCTTGTGGTGTGGGTGTAGCACATTTGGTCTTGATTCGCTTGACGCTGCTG | 89.9 a.u.
TAGCGTCCAAGGACGCCCGTGGCCGAGGGAGCACCAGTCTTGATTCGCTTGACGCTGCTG | 43.8 a.u.
GTCTTGTCTCATTTTCACGTGTACTTCCCCACTTCAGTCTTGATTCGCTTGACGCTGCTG | 696 a.u.
CGGGGTTAAGTTTGCCCAGTGGGTGGCTTGCAGCAGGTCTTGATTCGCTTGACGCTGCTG | 45 a.u.
ACTTTGCAAAAAAAGCACGCAGCAGGAAGCTCTTGAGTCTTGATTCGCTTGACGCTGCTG | 66.3 a.u.
TTGGTGTTTCAGGTATTCGTGCTAATCAACGTTACTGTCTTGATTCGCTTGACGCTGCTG | 68.8 a.u.
CGTCCTAGTGATTGTCACACTACTTCCATGAGGAAGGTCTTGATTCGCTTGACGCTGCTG | 92.6 a.u.
CTAACGAAGGTTTTTCACGTGACTTACAAGCCAAGTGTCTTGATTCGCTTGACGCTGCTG | 7530 a.u.
CGTCCTAGCGATTGAATGGTGGGTGCCATGAGGAAGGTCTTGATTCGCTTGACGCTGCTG | 68 a.u.
ATATTTCAGCTCCATCACGTGCTTTCAAAGGTACTTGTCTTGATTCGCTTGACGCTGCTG | 4060 a.u.
TTTGGTCTTCGATCCCACGTGGCCAACAATATCTTCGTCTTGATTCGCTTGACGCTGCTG | 1100 a.u.
CGTATGGAGTTTTCAAACGTGGAACAAAGAACCCAAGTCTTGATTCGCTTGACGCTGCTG | 83.5 a.u.
AAATTACTAAGTTGCTACGTGGGTGACGCCGTATGAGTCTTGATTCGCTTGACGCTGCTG | 63.6 a.u.

Sample 2
Target: Hepatocyte nuclear factor 3-beta, forkhead domain (FOXA2, Homo sapiens, UniProt Q9Y261, residues 142-269)
Method: protein-binding microarray
Form: double-stranded DNA, one strand shown
Medium: in vitro
Concentration: not given
Notes: k-mer, scored over probes, only values ≥0.25
Reading: higher = stronger binding
Construct (chain): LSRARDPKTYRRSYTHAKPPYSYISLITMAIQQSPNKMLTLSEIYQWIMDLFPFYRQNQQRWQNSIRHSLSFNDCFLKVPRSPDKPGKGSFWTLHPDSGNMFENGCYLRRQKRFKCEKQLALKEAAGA
Strand | E-score
ATAGTATA | 0.255
ATATTACG | 0.278
ACGTACAC | 0.287
ACACAATG | 0.276
GACATAAA | 0.263
ACATGAGA | 0.257
TTATCCAA | 0.281
TATGTGCA | 0.271
TGTTATAA | 0.282
AAATTTAC | 0.253
AAACATAT | 0.33
GTACGTTA | 0.268
ACTATAAA | 0.334
AGTATAAA | 0.292
AGATATAA | 0.267
ATTACAGG | 0.301
TAATCAAA | 0.301
AACTAATA | 0.378
AAGTGTTG | 0.255
AGGAATAT | 0.266
AATATGGT | 0.277
ACAGTAAT | 0.317
AATTTGTA | 0.333

Sample 3
Target: RNA binding protein fox-1 homolog 2, RRM domain, GST-SBP tag (RBFOX2, Homo sapiens, UniProt O43251-10, residues 100-194)
Method: RNA Bind-n-Seq
Form: RNA
Medium: in vitro
Concentration: 365 nM
Notes: natural RNA segment, single round, ends assumed
Baseline: no-protein control
Reading: higher = stronger binding
Construct (chain): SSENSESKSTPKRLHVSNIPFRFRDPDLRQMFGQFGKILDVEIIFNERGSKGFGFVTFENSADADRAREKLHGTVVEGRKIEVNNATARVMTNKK
Strand | RBNS enrichment (R)
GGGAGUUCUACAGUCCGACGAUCAGGGCUGGCUUCGCCCGCGUUCUCGUCGUCGGAUCAAGGAGCGCGGCGGCGUUUUGGACCCGCGCUCCCAUCCCCCACCUUCCCGGGCCGGGGACCCACUCUGCCCAGCCUGGAAUUCUCGGGUGCCAA | 0.31
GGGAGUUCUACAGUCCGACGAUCUUAGGCAACUUGUUUCAUAUUCUGGGCAUUUUAGUAGCUACAGUAUUUUGCAUUUAAAAUGUAAUUACUCUUAGUAUUGUACAGCCCUAUAAUGUAUGAGAACUAGUUUCUGGAAUUCUCGGGUGCCAA | 0.383
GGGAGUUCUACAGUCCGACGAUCCUUAACAAAGAAAACCUGGUGCUUGCAGUAUAGCUGUAGAAUUUUCUAUGUUCAAGACGUAGCUGCAAUAAAAUCCCAGUAGUAAAGGCUCAUUUAGCUCUGUAGCUUUCUGGAAUUCUCGGGUGCCAA | 0.374
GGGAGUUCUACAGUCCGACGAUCACGCCCACCCCCCACCCACCGCAAGCUUUGAGUGGGACACCAUUCUGAAUUUUUUUUCUGAAUUUUUUUUUAACAUCUCUUUCUCAUUAGAGAUCUGAAAACUCAUUAGAUGGAAUUCUCGGGUGCCAA | 0.879
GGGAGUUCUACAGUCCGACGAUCCCUGUCUGGGACACUUAAGUAACAUCUAAAGCAUUAUUGCUUUAGAAUGUUCAAAUAAAAUUUCCUGACCAAAUUGUUUUGUGGAAAUAGAUGUGUUUGCAAUUUGAAGAUGGAAUUCUCGGGUGCCAA | 0.684
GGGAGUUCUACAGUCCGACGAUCCCAAAGACCCUACAUCGAAUUUCCUUGAAGAAUGGUUCACGGGAUUUCUGUCCCUGAUGAAAGACUGCCCAUUCACCUUGGUUCCCUCCCCUUGUGGCUAAACGAAAGCAUGGAAUUCUCGGGUGCCAA | 12.1
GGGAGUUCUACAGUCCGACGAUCUGAAAAGGGCAAGAGGAAACCAGGGCAGUUCUAGAGGAGUGCUGGUGACUGGAUAGCAGUUUUAAGUGGCGUUCACCUAGUCAACACGACCGCGUGUGUUGCCCCUGCCCUGGAAUUCUCGGGUGCCAA | 0.827
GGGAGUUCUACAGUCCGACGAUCCAGUCACAGACGUCGCUUCCUGGGAUUCCAGCACGAUGCCUCCAUAGUUGAAAGACUACACAAAAAGCCACAAUCAUUGCCCGGCCUCCUGAGUCACCUUCUAUCUAUACUGGAAUUCUCGGGUGCCAA | 3.14
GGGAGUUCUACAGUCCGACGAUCAGCUUGUGAAGAUUGGGGACACUCAUAUUGCCCUAAUUAAAAACUGUGAUUUUUAUCACAAGGGAGGGGAGGCCGAGAGUCAGACUGAUAGACACCAUAGGAGCCGACUCUGGAAUUCUCGGGUGCCAA | 0.766
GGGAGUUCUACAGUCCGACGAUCGUGAAUACCUAGGAGAGUGUCAGCAUGUUUCUGGAAAAUUGGCAGAGACCAAGCCCUGCUGCAGAUUCGUCAGGCCAGGUGAAAGGGCCAGGCAGUUGCAGCUGAUGAUGUGGAAUUCUCGGGUGCCAA | 2.62
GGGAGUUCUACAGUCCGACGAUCAUGAUGAUAGGGCAAGCAUUCUUCUAAUCGAUUUUAAUUGUCCUUUGUGUGAAAAACAAAACAAAACAAACAAAAAAACCCAGAAACUUAUCCAUAAAUAACUACAUGACUGGAAUUCUCGGGUGCCAA | 0.966
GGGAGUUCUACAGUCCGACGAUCCCCCACCCUGUUUGGAUUUUUAAUUAAAAACUAGUAGUUCUCUUGGUGUUAAAACACUUCUGUCCUGUGAGGUUUCCCAAUGGUGUUUUUCUUGUAAAUGUGUUGGACAAUGGAAUUCUCGGGUGCCAA | 0.739

Sample 4
Target: Fragile X messenger ribonucleoprotein 1, C-terminal low-complexity region (Fmr1, Mus musculus, UniProt P35922)
Method: RNA Bind-n-Seq
Form: RNA
Medium: in vitro
Concentration: 200 nM
Notes: whole 134-nt RNA, ends assumed
Added: 150 mM KCl
Baseline: input library
Reading: higher = stronger binding
Strand | log2 enrichment
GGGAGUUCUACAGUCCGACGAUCUGGGCGGCUGCGAGAUGAGAACGGACGACCCUACUCGCCCAGUCAGUAUGCGCUCCAGUACGCCGGGGACGGCAGUGUCCUCCUCAUCCCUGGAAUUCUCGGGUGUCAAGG | 0.389
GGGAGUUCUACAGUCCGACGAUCUAACUUUAGAGGAGGAUCUGAUGGAUAUGGCAGUGGACGUGGAUUUGGGGAUGGCUAUAAUGGGUAUGGAGGAGGACCUAGAGGUGGCAAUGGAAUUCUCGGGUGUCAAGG | 0.129
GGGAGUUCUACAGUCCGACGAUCUGGCCCUGGUGGCAUGCGGGGAGGAAGAGGUGGCCUCAUGGAUCGUGGUGGUCCCGGUGGAAUGUUCACAGGUGGCCGUGGUGGAGACAGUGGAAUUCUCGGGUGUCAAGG | -0.0661
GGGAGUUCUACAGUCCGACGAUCUCAAGUCCUGUGCUACACAUCGUAUGUACCGAAUCGGCCCGGGCCCGGGGCCCGGAAAGUAUUAUGUUACGCCGUUCGGAUCUGCACUUCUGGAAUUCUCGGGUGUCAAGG | -0.552
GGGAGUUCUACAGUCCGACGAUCCACAGACAACACGCACCUACACAGACACAGAGGGAAGGGGUUGGGAUGGGGACAGGGUGCACAGCAGGGCGGGGUAGGACCCCAGCCCCUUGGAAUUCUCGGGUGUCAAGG | 1.37
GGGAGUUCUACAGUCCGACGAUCUCCUCAAGUCCUGUGCUACACAUCGUAUGUACCGAAUCGGAAAGGAGGUGGAAAGUAUUAUGUUACGCCGUUCGGAUCUGCACUUCCAGCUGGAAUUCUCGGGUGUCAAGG | -0.496
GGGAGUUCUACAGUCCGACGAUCUUAAUAGAUUGAACUUCAAAAAAAAAUUCUUUCUUAAUUUCUGGAUUAAAAAGUAUGCCUGUGUCUUCUAGACCUUUACCAGAAGAUGAUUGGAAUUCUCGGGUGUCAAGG | -1.23
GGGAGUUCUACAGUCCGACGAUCCCUGUGCUACACAUCGUAUGUACCGAAUCGGGGUUUUUUUGGGGUUUGGGGUUUUUGGGGAAAGUAUUAUGUUACGCCGUUCGGAUCUGCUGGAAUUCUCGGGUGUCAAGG | 0.499
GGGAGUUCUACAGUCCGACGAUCUAACUUUAGAGGAGGAUCUGAUGGAUAUGGCAGUGGACGUGGAUUGGGGGAUGGCUAUAAUGGGUAUGGAGGAGGACCUGGAGGUGGCAAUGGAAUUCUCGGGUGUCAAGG | 0.256
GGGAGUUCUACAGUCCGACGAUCAAGUCCUGUGCUACACAUCGUAUGUACCGAAUCGGGGUGGGGAAAGGGGUUUGGGGAAAGUAUUAUGUUACGCCGUUCGGAUCUGCACUUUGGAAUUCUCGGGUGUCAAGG | 0.996

A few entries again (sample 2):
Strand | E-score
TGTTATAA | 0.282
AAATTTAC | 0.253
AAACATAT | 0.33
GTACGTTA | 0.268
ACTATAAA | 0.334
AGTATAAA | 0.292
AGATATAA | 0.267
ATTACAGG | 0.301
TAATCAAA | 0.301
AACTAATA | 0.378
AAGTGTTG | 0.255
